Measurements of several laboratories.
± gives the spread as reported.
Ugcg: Ceramide glucosyltransferase (Ugcg, Mus musculus, UniProt O88693)
UniProt O88693, sequence (whole entry, looked up): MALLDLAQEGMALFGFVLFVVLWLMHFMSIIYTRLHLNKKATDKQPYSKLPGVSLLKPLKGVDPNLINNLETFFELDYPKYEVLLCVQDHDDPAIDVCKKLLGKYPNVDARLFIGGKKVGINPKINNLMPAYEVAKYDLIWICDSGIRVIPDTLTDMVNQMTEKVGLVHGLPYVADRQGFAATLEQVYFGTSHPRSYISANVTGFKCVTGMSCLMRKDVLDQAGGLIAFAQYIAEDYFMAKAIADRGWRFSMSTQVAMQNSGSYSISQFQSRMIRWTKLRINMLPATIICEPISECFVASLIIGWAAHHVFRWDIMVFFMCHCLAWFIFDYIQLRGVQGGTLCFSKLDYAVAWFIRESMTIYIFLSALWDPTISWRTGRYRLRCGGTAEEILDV

`CC(C)CC(=O)Nc1ccc(C2CCCCC2)cc1` gave a hepatic clearance of 9.7 mL/min/kg (liver microsome stability; human liver microsomes; 1 µM, without NADPH).
`C[n+]1c(/C=C/c2ccc(N(c3ccccc3)c3ccccc3)cc2)cc(/C=C2\Sc3ccccc3N2CCCN2CCCC2)c2ccccc21` gave an IC50 of 15600 nM (16HBE; cell growth or viability, MTT; 36 h).
For `CC#CC(=O)N1CCC[C@H]1c1nc(-c2ccc(C(=O)Nc3ccccn3)cc2)c2c(N)nccn12`, the IC50 was over 10000 nM (TMD8 ABBV-105-resistant; cell viability, CellTiter-Glo; 4 days, 48 h drug withdrawal).
The IC50 of `CNS(=O)(=O)Nc1nccc(Cc2c(C)c3ccc(Oc4ncccc4F)cc3oc2=O)c1F` is reported as over 1000 nM (MOLT-16; cell viability; 7 days).
With `CC(=O)Oc1ccccc1C(=O)[O][Pt]([NH2])([NH2])([Cl])([Cl])[O]C(C)=O` the IC50 was 1110 nM (LoVo; cell growth or viability, MTT; 72 h).
`CCN(C(=O)c1cc(F)ccc1Oc1nncnc1N1CCC2(C1)CN([C@H](CCCN(C)CCOC)C(C)C)C2)C(C)C` gave an IC50 of 114 ± 29 nM (OCI-AML-3 (NPM1c); mRNA level, QuantiGene multiplex, measured: PBX3).
`CCCC(CCC)C(=O)[O][Pt]([NH2])([NH2])([Cl])([Cl])[O]C(C)=O` gave an IC50 of 5420 nM (LoVo; cell growth or viability, MTT; 72 h).
`CCOc1cncc(-c2ccc(NC(=O)C3(c4ccnc(NS(=O)(=O)C5CC5)n4)CCOCC3)nc2)n1` gave an IC50 of 2230 nM (A 172; cell growth or viability, ATP luminescence; 72 h).
`C[C@@H]1CC[C@@H]([C@@](O)(CNCc2ccc(F)cc2)COCc2ccc(F)cc2)[C@H](OCc2ccc(F)cc2)C1` has an IC50 of 1410 nM (A2780; cell growth or viability, MTT; 72 h).
`Cc1cc(C)cc(NC(=O)N(Cc2ccc(C(=O)NO)cc2)OCc2ccccc2)c1` gave an IC50 of 3670 ± 62 nM (SUP-B15 B-ALL; cell viability, CellTiter-Glo; 72 h).
The IC50 of `c1ccc2nc3c4cccnc4c4ncccc4c3nc2c1` is reported as over 50000 nM (BEL-7404; cell growth or viability, MTT; 48 h).
`COc1cc(-c2cc(C(C)=O)n3ccccc23)c(OC)cc1Cn1ccnc1` gave an IC50 of 28 nM (MOLM16; cell growth or viability, ATP luminescence).
With `CC(C)c1ccc(N(C)c2ccc3c(c2)OCC[C@H]3CNc2cnccc2C(=O)O)cc1` the IC50 was 4.28 nM (TE-11; cell viability, CellTiter-Glo; 7 days).
`Cc1ccnc(-c2cc(C)ccn2)c1` has an IC50 of over 50000 nM (BEL-7404; cell growth or viability, MTT; 48 h).
The IC50 of `OC[C@H]1[C@@H](O)[C@H](O)[C@@H](O)CN1CCCCCOCC1CCCCC1` is reported as 70 nM (Ugcg; enzyme activity, inhibitor, fluorescence).
With `O=C(CCC(F)(F)F)Nc1ccc(C2CCCCC2)cc1` the hepatic clearance was 50 mL/min/kg (liver microsome stability; rat liver microsomes; 1 µM).
`c1ccc(-c2ccnc3c2ccc2c(-c4ccccc4)ccnc23)cc1` gave an IC50 of over 50000 nM (BEL-7404; cell growth or viability, MTT; 48 h).
The IC50 of `COc1cccc(CNC[C@@](O)(COCc2ccccc2)[C@@H]2CC[C@@H](C)C[C@H]2OCc2ccccc2)c1` is reported as 1370 nM (A2780; cell growth or viability, MTT; 72 h).
With `CC(C)=CCc1c(OCC2OC2(C)C)ccc2ccc(=O)oc12` (stereo not shown) the IC50 was over 100000 nM (MRC5; cell growth or viability, MTT; 72 h).
`C[C@@H]1CC[C@@H]([C@@](O)(COCc2ccccc2)Cn2cnc3ccccc32)[C@H](OCc2ccccc2)C1` gave an IC50 of 5340 nM (A2780; cell growth or viability, MTT; 72 h).
`Cc1ccc([N+](=O)[O-])cc1S(=O)(=O)N(C)/N=C/c1cnc2ccc(Br)cn12` has an IC50 of 59 nM (OVCAR-8; cell viability, MTS).
`CO[C@@H](C[C@H]1C(C)=CC[C@@H]2[C@]3(C)C[C@H](O[C@@H]4O[C@@H](C)[C@H](OC(=O)c5cccc(O)c5)[C@@H](O)[C@H]4O)[C@@H](O)C(C)(C)[C@H]3CC[C@]21C)[C@H](N)C(=O)O` gave an IC50 of over 10000 nM (3T3 fibroblasts; cell viability, CCK-8; 72 h).
The IC50 of `CC1(C)CC(=O)C(C2C3=C(CC(C)(C)CC3=O)Oc3ccccc32)=C(O)C1` (stereo not shown) is reported as over 1000 µg/mL (3T3-L1 mature adipocytes; MTT; 72 h).
`CCCC(=O)Oc1c(C)c(OC)c2c(c1C)OC(=O)[C@@H](CC)[C@]2(O)/C=C/c1ccccc1` (racemic) gave an IC50 of over 50000 nM (HT-29; cell growth or viability, SRB; 72 h).
For `NC(=O)c1ccc(-c2ccccc2Cl)c2c3c([nH]c12)CCC(N)C3` (stereo not shown), the IC50 was 19.1 nM (Pfeiffer; cell growth or viability; 96 h).
For `CCOC(=O)CC[C@@H](C)[C@H]1CC[C@H]2[C@@H]3[C@H](O)C[C@@H]4C[C@H](O)CC[C@]4(C)[C@H]3C[C@H](O)[C@]12C`, the IC50 was 43000 nM (A2780; cell growth or viability, MTT; 48 h).
`Cn1ncc(-c2ccc3c(=O)[nH]nc(CN)c3c2)c1-c1c(F)c(Cl)cc(OC2CC2)c1C#N` has an IC50 of 300 nM (SW1990; cell viability, inhibitor, CellTiter-Glo; 120 h, baseline-subtracted).
`O=C1CCP(=O)(c2ccccc2)CC1` has an IC50 of over 100000 nM (HaCaT; cell growth or viability, MTT; 72 h).
`OC[C@H]1[C@@H](O)[C@H](O)[C@@H](O)CN1CCCCCOCC12CC3CC(C1)CC(COCCCCCN1C[C@H](O)[C@@H](O)[C@H](O)[C@@H]1CO)(C3)C2` gave an IC50 of 10000 nM (Ugcg; enzyme activity, inhibitor, fluorescence).
With `O=C(NCc1cc(F)cc(F)c1)[C@@]1(O)CCN(c2ccc3[nH]ccc3c2)C1=O` the IC50 was 45 nM (MAXF 1384; colony formation).
`CN1CCC(N[C@@H]2CCc3[nH]c4c(C(N)=O)ccc(-c5ccccc5Cl)c4c3C2)CC1` has an IC50 of 39 nM (MINO; cell growth or viability).
For `C/C=C(/C)C(=O)OC[C@H]1[C@@H](Cc2ccc(C(C)(C)C)cc2)CO[C@@H]1c1ccc(F)cc1`, the IC50 was 4900 nM (rat VSMC; cell growth or viability, resazurin; 48 h).
`C=CC(=O)N1CCCC(n2c(=O)c3ncccc3n(Cc3ccc(Oc4ccccc4)cc3)c2=O)C1` (stereo not shown) has an IC50 of 3000 nM (FEPD; cell proliferation, MTT; 72 h).
`COc1cc2ncnc(Nc3ccc(F)c(Cl)c3)c2cc1NC(=O)/C=C/CN1CCCCC1` has an IC50 of 2600 nM (BaF3; cell growth or viability; 72 h).
The IC50 of `Cc1cc(C)cc(COc2cc3c(cc2OCc2cc(C)cc(C)c2)[C@@H]2C[C@](O)(Cc4cn(Cc5ccc(F)cc5)nn4)C[C@H](C)N2CC3)c1` (relative stereo) is reported as 1920 nM (GES1; cell growth or viability, MTT; 48 h).
With `Cc1ccc2c(Cl)cc(Cl)c([O-])c2n1.Cc1ccc2c(Cl)cc(Cl)c([O-])c2n1.[Co+2].c1ccc(-c2ccccn2)nc1` the IC50 was 6000 nM (BEL-7404; cell growth or viability, MTT; 48 h).
With `O=[P@]1(c2ccccc2)CC[C@H](O)CC1` the IC50 was over 100000 nM (HaCaT; cell growth or viability, MTT; 72 h).

Excerpt of the above:
`CO[C@@H](C[C@H]1C(C)=CC[C@@H]2[C@]3(C)C[C@H](O[C@@H]4O[C@@H](C)[C@H](OC(=O)c5cccc(O)c5)[C@@H](O)[C@H]4O)[C@@H](O)C(C)(C)[C@H]3CC[C@]21C)[C@H](N)C(=O)O` gave an IC50 of over 10000 nM (3T3 fibroblasts; cell viability, CCK-8; 72 h).
The IC50 of `CC1(C)CC(=O)C(C2C3=C(CC(C)(C)CC3=O)Oc3ccccc32)=C(O)C1` (stereo not shown) is reported as over 1000 µg/mL (3T3-L1 mature adipocytes; MTT; 72 h).
`CCCC(=O)Oc1c(C)c(OC)c2c(c1C)OC(=O)[C@@H](CC)[C@]2(O)/C=C/c1ccccc1` (racemic) gave an IC50 of over 50000 nM (HT-29; cell growth or viability, SRB; 72 h).
For `NC(=O)c1ccc(-c2ccccc2Cl)c2c3c([nH]c12)CCC(N)C3` (stereo not shown), the IC50 was 19.1 nM (Pfeiffer; cell growth or viability; 96 h).
For `CCOC(=O)CC[C@@H](C)[C@H]1CC[C@H]2[C@@H]3[C@H](O)C[C@@H]4C[C@H](O)CC[C@]4(C)[C@H]3C[C@H](O)[C@]12C`, the IC50 was 43000 nM (A2780; cell growth or viability, MTT; 48 h).
